Measured values pooled from the literature.
Numbered parts are unrelated; each lists some results of a single study.

Sample 1
Target: Interferon regulatory factor 7, full length, phosphomimetic (IRF7, Homo sapiens, UniProt Q92985, residues 1-503, S101K/S471D/S472D/S475D/S476D/S477D/S483D/S484D/S487D)
Sequence of UniProt Q92985 (whole entry, unmodified, looked up): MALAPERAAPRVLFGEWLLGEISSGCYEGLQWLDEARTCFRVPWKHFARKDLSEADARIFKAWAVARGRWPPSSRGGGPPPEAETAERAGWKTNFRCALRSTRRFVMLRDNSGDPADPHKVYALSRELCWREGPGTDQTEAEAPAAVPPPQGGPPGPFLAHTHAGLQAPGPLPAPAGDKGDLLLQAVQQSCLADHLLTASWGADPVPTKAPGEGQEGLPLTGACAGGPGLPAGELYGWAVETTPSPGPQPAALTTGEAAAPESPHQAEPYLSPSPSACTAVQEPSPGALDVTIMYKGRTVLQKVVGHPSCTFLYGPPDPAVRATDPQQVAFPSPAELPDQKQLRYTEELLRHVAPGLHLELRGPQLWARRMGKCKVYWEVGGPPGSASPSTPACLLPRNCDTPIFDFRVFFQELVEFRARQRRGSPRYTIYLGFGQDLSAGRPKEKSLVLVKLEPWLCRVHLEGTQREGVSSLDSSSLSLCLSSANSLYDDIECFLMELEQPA
Method: protein-binding microarray
Form: double-stranded DNA, one strand shown
Sample: in vitro
Tested at: 250 nM
Notes: 60-bp whole probe
With: salmon DNA 0.4 mg/ml
Baseline: random background probes
Reading: higher = stronger binding
Measurement: log fluorescence
All sequences stand within: GCCTAGCAC … GTCTTGATTCGCTTGACGCTGCTG
TTAGGACTGCTTCTCCGTTAGTGCTAG: 0.964 z-score
TCAACACTAATTTTCAAACTGTGCTAG: 0.195 z-score
GACGGTATCGGTTTCCGGACGTGCTAG: 5.9 z-score
ATAGGTTTCGGGTTTCGGTTAGTGCTA: 12.7 z-score
TTGGATTTCGGGACTGGATTAGTGCTA: 0.184 z-score

Sample 2
Target: RNA binding protein fox-1 homolog 2, RRM domain, GST-SBP tag (RBFOX2, Homo sapiens, UniProt O43251-10, residues 100-194)
Method: RNA Bind-n-Seq
Form: RNA
Sample: in vitro
Tested at: 365 nM
Notes: natural RNA segment, single round, ends assumed
Baseline: no-protein control
Reading: higher = stronger binding
Measurement: RBNS enrichment (R)
All sequences stand within: GGGAGUUCUACAGUCCGACGAUC … UGGAAUUCUCGGGUGCCAA
Residues (chain): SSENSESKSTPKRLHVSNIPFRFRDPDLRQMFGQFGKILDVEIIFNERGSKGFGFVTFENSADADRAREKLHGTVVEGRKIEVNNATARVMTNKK
CAUUUUUGAAUAGAAAACAGUUGCGUGCUUUUAUUGAAGAUUGUUAAAAUAAUCACCAUAGUAACUUGAUAUGUUAGUAUUUUUCUUUUUCCUUUUAGUAUGUUUCAAGU: 0.819
AGGAAUGUCAUAACCAUUCACACUCUAUGUCUUUCAACUCUCAUCAACAUGUUCAUCAACAUGCGUGCACAUAGACAUGAAUGCACGCCCUUCUUUCAAGGCAGAUUGAU: 0.563
AUGGACUUGAGGUCCCAGGAGAUUUCAUUUUAUUCACCCUGGUCAGAUACAAUAAAGGCUAUGAGUAUAAAUACAUAACUUCCUAACCAGGUGUAGGGCAUGUUCAUGAA: 16.6
GAUUAUGAGCUAAUUUUUUUUAUAGGACACAGAAUUCUAUUCAAUGCUGUUAAAUAUGCAAAUAGUUUAAUCUUUUUUUCUUUUGUUGUUUGAUGGGAAAUUGUGACAUU: 0.884
GAAUGAGAUGGGAAAGAGGUAACAAAAUAACCUGCUGCCACCUCUUCUCUGGGUGGCUCAGCAGGAGCAACUGUGACCUCCUCUCCUAAGGAGACGAAGACCUAACGGGG: 0.227

Sample 3
Target: Ras GTPase-activating protein-binding protein 1, full length (G3BP1, Homo sapiens, UniProt Q13283)
Sequence of UniProt Q13283 (whole entry, looked up): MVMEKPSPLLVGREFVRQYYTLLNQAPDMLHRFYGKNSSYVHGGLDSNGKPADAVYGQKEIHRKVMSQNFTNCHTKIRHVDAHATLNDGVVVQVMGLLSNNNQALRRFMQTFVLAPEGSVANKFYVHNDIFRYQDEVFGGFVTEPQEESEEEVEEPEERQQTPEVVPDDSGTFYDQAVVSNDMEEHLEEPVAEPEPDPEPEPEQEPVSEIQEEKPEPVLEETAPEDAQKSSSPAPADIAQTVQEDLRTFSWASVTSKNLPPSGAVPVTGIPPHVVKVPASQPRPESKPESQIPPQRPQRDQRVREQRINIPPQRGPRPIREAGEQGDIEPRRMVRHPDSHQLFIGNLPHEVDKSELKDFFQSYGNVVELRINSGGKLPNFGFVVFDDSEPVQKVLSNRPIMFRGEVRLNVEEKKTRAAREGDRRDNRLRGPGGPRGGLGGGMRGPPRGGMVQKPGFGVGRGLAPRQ
Method: RNA Bind-n-Seq
Form: RNA
Sample: in vitro
Tested at: 200 nM
Notes: whole 134-nt RNA, ends assumed
With: 150 mM LiCl
Baseline: input library
Reading: higher = stronger binding
Measurement: log2 enrichment
All molecules: 7-deaza-guanosine replaces G
GGGAGUUCUACAGUCCGACGAUCUCAAGUCCUGUGCUACACAUCGUAUGUACCGAAUCGGUGGUUUUUGGUUUUUGGAAAGUAUUAUGUUACGCCGUUCGGAUCUGCACUUCCUGGAAUUCUCGGGUGUCAAGG: -0.0945
GGGAGUUCUACAGUCCGACGAUCCAAGUCCUGUGCUACACAUCGUAUGUACCGAAUCGGAAAAAGGAAAAAAAGGUGGAAAGUAUUAUGUUACGCCGUUCGGAUCUGCACUUCUGGAAUUCUCGGGUGUCAAGG: -1.1
GGGAGUUCUACAGUCCGACGAUCUUUAUCAUGAGGAGCUCAACGCGCCCAUACGGAGAAACAAAGAAGAGCCCAAGGCCCGGCCCUUGAGAGUAGGUGACACGGAGAAGCCAGUGGAAUUCUCGGGUGUCAAGG: -0.79
GGGAGUUCUACAGUCCGACGAUCCCUCAAGUCCUGUGCUACACAUCGUAUGUACCGAAUCGGCGGGGCGGGCGGGAAAGUAUUAUGUUACGCCGUUCGGAUCUGCACUUCCAGUGGAAUUCUCGGGUGUCAAGG: -0.0741

Mixed results
PhoQ, residues 284 288 289 292 302 303 SACGEM  fold induction (PhoP, residues 12 14 15 18 19 IFFTR (Escherichia coli, UniProt P23836); Sort-seq, item: YFP reporter; E. coli; PhoQ-PhoP variant library, with: 10 µM Mg2+; baseline: high Mg2+ state, higher = stronger signaling): 15.2
